Measured values from different studies.
A part holds a random share of what one study measured. Changes are numbered by the printed parent chain.

Series 1
Target: RNA binding protein fox-1 homolog 2, RRM domain, GST-SBP tag (RBFOX2, Homo sapiens, UniProt O43251-10, residues 100-194)
Technique: RNA Bind-n-Seq
Molecule type: RNA
Medium: in vitro
Concentration: 365 nM
Notes: natural RNA segment, single round, ends assumed
Baseline: no-protein control
Direction: higher = stronger binding
Quantity: RBNS enrichment (R)
Constant ends, left off below: GGGAGUUCUACAGUCCGACGAUC … UGGAAUUCUCGGGUGCCAA
Construct (chain): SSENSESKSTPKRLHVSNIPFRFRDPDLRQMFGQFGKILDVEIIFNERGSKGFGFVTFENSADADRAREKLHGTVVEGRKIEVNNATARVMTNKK
Oligonucleotide = UGUCACGCGGCAGCUUCAGGGAGCUCGCAUUCUCUUGUGUUCGUGUUGCCCUCGUGCCCAUCAAGUGCAGUCGGGACCUCCCAGGACAAGCACGAGGCCUCAGGUCGGCC; result = 1.69
Oligonucleotide = CUCCUCUUAACUCCUGCUGCUGUCCAUGGGGUUUCCAGAGCCUUCACCUACAGCUCAGUGGGGUUUCCAUUCACGGACUUGCUGUUCCUGUGGGCCAGUGUCGUGUGGCC; result = 0.358
Oligonucleotide = CUAAAACUAAAUUUCUUUCAUGUCCUCCCUACUUCCUCAGUGUCAAUCAGAUUAAAGUGUGUAAUCCAUUUUAUGUGUGUAUAGUCUUUUUUGAAACAGCUGCUUAAAAU; result = 0.948
Oligonucleotide = AGCCCAGACAACACAGGCAUGGCCUGCGUGCCCUCCCAGCAUCUGCUGCGAUGGCCUCAAGGCCUCUCCAGUCCCCUGCUGCACCAUGCCACUCAGAGCCCCUGAGUGAG; result = 0.265
Oligonucleotide = UUCCUGUUACCUCAUCUUCUUUUUUAAAGUACACCUGACUUGGGAGGGUACUGUCUCUAAUGUAUAUUUCUAGUGUUUACAGACACUAAGUGUGUAUAUGUAGUAACUAU; result = 0.426
Oligonucleotide = GGUUAGACAUUUUUAUUUCAUUGACUAACCCAGGACAGUUUCAGUGAUGCAAAUUGUGUGCCCUCUGGUUCAGCUGAAACAGUCCUGGACUUUCAAAAACCUUGAAUAAG; result = 0.352
Oligonucleotide = UCUGCACUUACUCCCCAUCAGAAGAUCGAGUUUUAUGCAUCACAGUUAACAUGUCAGCUGGCCCUCCAGGCCCCCGCCCCCAUCCCGUCCACGUUGCUGUGUCGUGAGGU; result = 1.07
Oligonucleotide = UGGCUGGACCAUGUAUGAUGAUGAAAGCCUGUGUCUUUGAGGGAUUCUACCCUGAACAUACCUCACAGAUCCUCCCUGUCAUGCCACAUUUCACUGAUUGGAAUGUGGAA; result = 0.317
Oligonucleotide = UUCCGAGUUUCCAGCUAGUCCUAGAGUUCUAUAUUUCUACAUAGUUGAAUUAUUUUAUCAUGCUGUUGCUGGGGAAUAUGACUAACCCUUUUGAAGCUACUAAUUUUAUG; result = 0.45
Oligonucleotide = CAGUGCACUUUGACAGUAGAUGCUGUCCUGCAGCUGUUACAGCUGAUAGUUGACCUCUGAGUCAGUGAGACCAACAAUGAGUGGUGGCCCCAGGCUUUGUUUCCUUUGCU; result = 0.396
Oligonucleotide = CUCAUCAGCAUUGUCCUCUUUGGAAAUUUUGUCCUCCUGAGGAAAUGCACUUGACGAGUGCUGAAAACUUCUUAAGUGGUUUAAAUUUUGUUUUCAUUGUUUGCAGCGGA; result = 0.806
Oligonucleotide = CUUUUGCCUUGACAGGUCUCUCCUUGGGAUUUGCUCCUCCAGAACCUGAAUUGGAGAGCUUGACCUUUUGCUUGUUAUUUUGCAGUUUGAUUUUGGGCCUAAAGAUGCCA; result = 2.27

Series 2
Target: Interferon regulatory factor 7, full length, phosphomimetic (IRF7, Homo sapiens, UniProt Q92985, residues 1-503, S101K/S471D/S472D/S475D/S476D/S477D/S483D/S484D/S487D)
Technique: protein-binding microarray
Molecule type: double-stranded DNA, one strand shown
Medium: in vitro
Concentration: 250 nM
Notes: 60-bp whole probe
With: salmon DNA 0.4 mg/ml
Baseline: random background probes
Direction: higher = stronger binding
Quantity: log fluorescence
Constant ends, left off below: GCCTAGCAC … GTCTTGATTCGCTTGACGCTGCTG
Target sequence (chain): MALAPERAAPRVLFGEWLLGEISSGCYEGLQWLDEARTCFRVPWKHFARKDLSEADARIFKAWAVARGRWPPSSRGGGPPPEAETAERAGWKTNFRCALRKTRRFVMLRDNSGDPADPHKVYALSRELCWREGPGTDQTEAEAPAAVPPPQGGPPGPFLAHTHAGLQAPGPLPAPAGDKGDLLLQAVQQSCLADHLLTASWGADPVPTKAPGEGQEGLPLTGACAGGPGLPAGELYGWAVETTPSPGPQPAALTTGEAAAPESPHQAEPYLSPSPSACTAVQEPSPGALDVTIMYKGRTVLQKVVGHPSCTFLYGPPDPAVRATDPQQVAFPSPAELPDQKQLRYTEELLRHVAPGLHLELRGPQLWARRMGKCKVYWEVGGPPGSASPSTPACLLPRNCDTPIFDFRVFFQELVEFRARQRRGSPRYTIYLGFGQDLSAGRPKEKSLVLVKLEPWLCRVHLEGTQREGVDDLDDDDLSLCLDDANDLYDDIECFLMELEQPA
Oligonucleotide = TCAACTTTAAATTAGACACTGTGCTAG; result = 0.00672 z-score
Oligonucleotide = GACGGTTCCCTTTTCCTGAGGTGCTAG; result = 2.56 z-score
Oligonucleotide = TTGGGTTTCCTTCTCCTTTAGTGCTAG; result = 1.71 z-score
Oligonucleotide = GACGGTATCCTTTTCCCGACGTGCTAG; result = 1.39 z-score
Oligonucleotide = TTTGGTCTCCTTCTCCTTTAGTGCTAG; result = 0.645 z-score
Oligonucleotide = TCATGTCTGGGTATTTTACTGTGCTAG; result = -0.852 z-score
Oligonucleotide = TGAGGTTTCGGTATCGGTTAGTGCTAG; result = 10.5 z-score
Oligonucleotide = GACGGACGGGGTCTCGGGACGTGCTAG; result = -0.489 z-score
Oligonucleotide = TTAGGTCCCCTTCTCCTTTAGTGCTAG; result = 1.09 z-score
Oligonucleotide = TCATAAAATGGACACTGTACTGTGCTA; result = 0.277 z-score
Oligonucleotide = GACGACTTCGGGTTTCGAGACGTGCTA; result = 2.27 z-score
Oligonucleotide = TCAACTTTCTACGTCTGACTGTGCTAG; result = 0.336 z-score
Oligonucleotide = GAACCTTCAGCTCTAGGTTCGTGCTAG; result = 1.29 z-score
Oligonucleotide = GAGGATATCAGTTTCGAGACGTGCTAG; result = 4.1 z-score
Oligonucleotide = GACGAACTGCGTATCGAGACGTGCTAG; result = -0.423 z-score
Oligonucleotide = TTAGGTATCTTTCTCCTTTAGTGCTAG; result = 0.716 z-score
Oligonucleotide = TTGGGTCTCCTTTTCCTTTAGTGCTAG; result = 1.57 z-score
Oligonucleotide = GACGAACTGGGGTTTTGAGACGTGCTA; result = -0.636 z-score
Oligonucleotide = TTAGAATTCAGACTGGATTAGTGCTAG; result = -0.185 z-score
Oligonucleotide = TAAGGACTGCTTATCCTTTAGTGCTAG; result = 0.346 z-score
Oligonucleotide = TTAGGTCTCGGTTTCGCTTAGTGCTAG; result = 9.44 z-score
Oligonucleotide = GTCGATATCAGTATCGAGACGTGCTAG; result = 0.523 z-score
Oligonucleotide = TCACTCGTGTTTTTCTCACTGTGCTAG; result = 0.694 z-score
Oligonucleotide = TTAGGTATCGGGAATGGGTTAGTGCTA; result = 0.194 z-score
Oligonucleotide = TCATGCTTGTGTCTGGGACTGTGCTAG; result = -0.664 z-score

Series 3
Target: ABI1, truncated, D143A, DHFR fusion (Arabidopsis thaliana)
Technique: DHFR PCA, deep sequencing
Medium: yeast
Notes: methotrexate growth selection, single substitutions
With: (+)-ABA 1.4 µM
Baseline: wild-type fitted maximum
Direction: higher = stronger binding
Quantity: relative binding score
Starting sequence: PYL1, truncated, DHFR fusion (Arabidopsis thaliana); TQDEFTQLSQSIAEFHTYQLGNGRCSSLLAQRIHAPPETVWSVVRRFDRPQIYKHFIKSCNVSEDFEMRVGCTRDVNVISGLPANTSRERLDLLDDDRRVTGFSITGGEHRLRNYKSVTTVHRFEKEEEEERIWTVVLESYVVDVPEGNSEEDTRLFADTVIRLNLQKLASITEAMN
Variant = V145G; result = -11.6%
Variant = A175Y; result = 8.89%
Variant = L112W; result = 5.86%
Variant = T86D; result = 37.5%
Variant = T173H; result = -4.78%
Variant = T6V; result = 69.1%
Variant = R32N; result = -3.36%
Variant = E89Y; result = -9.45%
Variant = T101L; result = 68.5%
Variant = C25R; result = -13%
Variant = Q167A; result = 66.5%
Variant = I57W; result = 8.86%
Variant = S171D; result = 57%
Variant = G107T; result = -3.54%
Variant = V70R; result = 7.41%

Series 4
Target: FOSL2, bZIP domain (human)
Technique: DHFR protein complementation
Medium: yeast
Notes: single substitutions, most at no-binding floor
Baseline: wild-type JUN-FOS pair
Direction: higher = stronger binding
Quantity: binding fitness
Starting sequence: JUN, bZIP domain (human); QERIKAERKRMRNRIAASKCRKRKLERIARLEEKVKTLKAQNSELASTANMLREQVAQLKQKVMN; partner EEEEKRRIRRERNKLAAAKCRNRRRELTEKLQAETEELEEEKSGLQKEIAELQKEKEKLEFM
Variant = E32W; result = -0.168 natural log
Variant = E54C; result = -0.158 natural log
Variant = E33Q; result = -0.0218 natural log
Variant = S47D; result = 0.164 natural log
Variant = L59H; result = -0.964 natural log
Variant = R30A; result = 0.292 natural log
Variant = E33C; result = -0.11 natural log
Variant = L38F; result = -0.674 natural log
Variant = S47T; result = 0.0481 natural log
Variant = A57S; result = -0.0408 natural log
Variant = R30Y; result = 0.0981 natural log
Variant = A49Q; result = -0.395 natural log
Variant = N42H; result = -0.485 natural log
Variant = V35P; result = -1.18 natural log
Variant = S43W; result = -0.0984 natural log
Variant = L38Y; result = -0.785 natural log
Variant = A40C; result = -0.072 natural log
Variant = A29K; result = -0.0562 natural log
Variant = L45N; result = -0.819 natural log
Variant = A29E; result = 0.0517 natural log
Variant = I28P; result = -0.103 natural log
Variant = S47I; result = 0.0924 natural log
Variant = L52V; result = -0.471 natural log
Variant = S43F; result = -0.0182 natural log
Variant = E54I; result = -0.0396 natural log

Series 5
Target: CCND3, cyclin fold, Cln2 fusion (human)
Technique: yeast growth competition, sequencing
Medium: yeast
Notes: weak parent motif
Baseline: not given
Direction: higher = stronger binding
Quantity: normalised enrichment score
Starting sequence: SCAPER docking peptide (human); SNARRSLNFGGST; partner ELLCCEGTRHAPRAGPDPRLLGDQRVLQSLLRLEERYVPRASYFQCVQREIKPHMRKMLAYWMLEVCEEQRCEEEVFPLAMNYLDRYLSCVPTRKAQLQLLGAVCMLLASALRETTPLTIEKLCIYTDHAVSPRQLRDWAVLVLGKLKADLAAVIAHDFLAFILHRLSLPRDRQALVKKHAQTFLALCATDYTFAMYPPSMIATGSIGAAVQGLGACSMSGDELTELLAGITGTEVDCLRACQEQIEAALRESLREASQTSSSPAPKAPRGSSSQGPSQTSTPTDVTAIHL
Variant = SNALRSLNFGGST [R4L]; result = 0.00997
Variant = SNARRSLCFGGST [N8C]; result = 0.0679
Variant = SNARRSLNFGSST [G11S]; result = 0.158
Variant = RNARRSLNFGGST [S1R]; result = 0.132
Variant = SNARRSMNFGGST [L7M]; result = 0.131
Variant = SNARRSLNFGVST [G11V]; result = 0.18
Variant = SNAERSLNFGGST [R4E]; result = -0.0465
Variant = VNARRSLNFGGST [S1V]; result = 0.163
Variant = SNARRSLNIGGST [F9I]; result = 0.119
Variant = SNARRSLGFGGST [N8G]; result = 0.0843
Variant = SNARRSLNQGGST [F9Q]; result = 0.117
Variant = SNARRSLNFGGHT [S12H]; result = 0.144
Variant = SNARRALNFGGST [S6A]; result = 0.237
Variant = SNARRSLNFGGSS [T13S]; result = 0.14
Variant = SNARASANFGGST [R5A L7A]; result = 0.0549
Variant = SNARRSLNFGGYT [S12Y]; result = 0.138
Variant = SNARRSLNFGGWT [S12W]; result = 0.0958
Variant = SNARRSLVFGGST [N8V]; result = 0.11
Variant = SNARRSYNFGGST [L7Y]; result = 0.102
Variant = SNARRSLNFGGDT [S12D]; result = 0.153
Variant = SFARRSLNFGGST [N2F]; result = 0.155
Variant = SNARRSLNHGGST [F9H]; result = 0.0924
Variant = SNARRSLNFNGST [G10N]; result = 0.0953
Variant = SNARRSLYFGGST [N8Y]; result = 0.121

Mixed results
Molecule = PhoQ, residues 284 288 289 292 302 303 SSCCRF; target = PhoP, residues 12 14 15 18 19 LHHVQ (Escherichia coli, UniProt P23836); test = Sort-seq, measured: YFP reporter; system = E. coli; setting = PhoQ-PhoP variant library, with: 10 µM Mg2+; scale = baseline: high Mg2+ state, higher = stronger signaling; quantity = fold induction; result = 0.829
